Results of several laboratories.
A part holds a random share of what one study measured. Substitutions count along the parent as printed.
Sequence of UniProt O23661 (whole entry, looked up): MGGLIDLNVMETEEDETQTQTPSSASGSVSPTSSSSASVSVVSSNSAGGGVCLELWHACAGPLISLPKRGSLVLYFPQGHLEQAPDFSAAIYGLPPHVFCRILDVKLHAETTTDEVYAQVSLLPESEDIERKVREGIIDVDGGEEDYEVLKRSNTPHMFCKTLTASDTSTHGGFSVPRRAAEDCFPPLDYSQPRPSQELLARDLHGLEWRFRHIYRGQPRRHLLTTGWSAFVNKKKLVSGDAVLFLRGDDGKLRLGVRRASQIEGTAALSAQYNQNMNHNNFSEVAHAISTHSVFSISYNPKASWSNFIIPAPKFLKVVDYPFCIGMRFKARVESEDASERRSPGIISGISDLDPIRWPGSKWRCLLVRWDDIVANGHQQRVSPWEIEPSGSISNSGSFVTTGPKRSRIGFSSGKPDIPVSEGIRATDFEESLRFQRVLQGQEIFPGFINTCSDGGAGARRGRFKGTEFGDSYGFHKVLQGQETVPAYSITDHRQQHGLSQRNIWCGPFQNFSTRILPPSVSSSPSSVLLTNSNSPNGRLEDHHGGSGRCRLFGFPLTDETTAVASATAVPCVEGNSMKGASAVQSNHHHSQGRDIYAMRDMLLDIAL
Sequence of UniProt Q8TF76 (whole entry, looked up): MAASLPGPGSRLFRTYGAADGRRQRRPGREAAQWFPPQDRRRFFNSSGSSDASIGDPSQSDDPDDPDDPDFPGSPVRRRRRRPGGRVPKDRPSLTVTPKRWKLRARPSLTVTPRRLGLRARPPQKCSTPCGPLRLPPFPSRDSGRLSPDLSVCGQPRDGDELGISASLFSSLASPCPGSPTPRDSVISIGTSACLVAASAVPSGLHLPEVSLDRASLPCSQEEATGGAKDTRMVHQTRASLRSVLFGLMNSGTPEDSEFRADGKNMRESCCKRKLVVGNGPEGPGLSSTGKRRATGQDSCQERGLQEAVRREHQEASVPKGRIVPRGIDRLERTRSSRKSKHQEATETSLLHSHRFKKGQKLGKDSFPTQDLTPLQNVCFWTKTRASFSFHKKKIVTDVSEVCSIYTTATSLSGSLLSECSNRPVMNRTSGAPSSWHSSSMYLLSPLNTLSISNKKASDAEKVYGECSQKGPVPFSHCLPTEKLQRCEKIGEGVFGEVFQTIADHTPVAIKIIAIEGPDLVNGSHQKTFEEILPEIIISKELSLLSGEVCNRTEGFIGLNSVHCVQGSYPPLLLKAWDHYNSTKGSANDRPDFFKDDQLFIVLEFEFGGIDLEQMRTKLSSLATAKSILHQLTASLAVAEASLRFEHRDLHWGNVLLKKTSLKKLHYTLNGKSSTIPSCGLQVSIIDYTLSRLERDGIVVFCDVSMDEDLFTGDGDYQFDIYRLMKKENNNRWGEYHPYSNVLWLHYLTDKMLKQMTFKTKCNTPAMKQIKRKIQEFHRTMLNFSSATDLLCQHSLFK
Sequence of UniProt P19784 (whole entry, looked up): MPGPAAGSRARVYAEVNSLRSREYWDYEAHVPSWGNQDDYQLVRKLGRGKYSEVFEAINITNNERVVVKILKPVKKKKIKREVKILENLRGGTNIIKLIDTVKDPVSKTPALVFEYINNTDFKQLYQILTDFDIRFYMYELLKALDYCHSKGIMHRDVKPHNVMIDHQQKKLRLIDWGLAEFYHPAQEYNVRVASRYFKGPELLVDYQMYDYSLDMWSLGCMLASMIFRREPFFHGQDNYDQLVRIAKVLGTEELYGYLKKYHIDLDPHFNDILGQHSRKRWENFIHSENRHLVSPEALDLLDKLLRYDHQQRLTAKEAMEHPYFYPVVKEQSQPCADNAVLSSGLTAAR
Sequence of UniProt O00238 (whole entry, looked up): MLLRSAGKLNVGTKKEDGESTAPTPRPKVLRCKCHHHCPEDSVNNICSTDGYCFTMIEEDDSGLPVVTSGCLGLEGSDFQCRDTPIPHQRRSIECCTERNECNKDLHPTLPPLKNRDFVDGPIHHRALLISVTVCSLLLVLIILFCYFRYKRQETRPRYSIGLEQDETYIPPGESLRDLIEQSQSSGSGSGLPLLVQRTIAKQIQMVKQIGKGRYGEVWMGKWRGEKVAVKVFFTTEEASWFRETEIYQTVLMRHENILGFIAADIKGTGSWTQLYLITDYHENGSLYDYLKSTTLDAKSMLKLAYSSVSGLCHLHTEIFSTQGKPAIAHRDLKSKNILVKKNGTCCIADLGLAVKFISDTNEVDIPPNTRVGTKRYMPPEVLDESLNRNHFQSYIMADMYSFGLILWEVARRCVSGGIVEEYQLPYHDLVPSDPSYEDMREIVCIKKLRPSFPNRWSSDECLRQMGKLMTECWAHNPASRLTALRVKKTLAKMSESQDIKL
Sequence of UniProt Q9BYP7 (whole entry, looked up): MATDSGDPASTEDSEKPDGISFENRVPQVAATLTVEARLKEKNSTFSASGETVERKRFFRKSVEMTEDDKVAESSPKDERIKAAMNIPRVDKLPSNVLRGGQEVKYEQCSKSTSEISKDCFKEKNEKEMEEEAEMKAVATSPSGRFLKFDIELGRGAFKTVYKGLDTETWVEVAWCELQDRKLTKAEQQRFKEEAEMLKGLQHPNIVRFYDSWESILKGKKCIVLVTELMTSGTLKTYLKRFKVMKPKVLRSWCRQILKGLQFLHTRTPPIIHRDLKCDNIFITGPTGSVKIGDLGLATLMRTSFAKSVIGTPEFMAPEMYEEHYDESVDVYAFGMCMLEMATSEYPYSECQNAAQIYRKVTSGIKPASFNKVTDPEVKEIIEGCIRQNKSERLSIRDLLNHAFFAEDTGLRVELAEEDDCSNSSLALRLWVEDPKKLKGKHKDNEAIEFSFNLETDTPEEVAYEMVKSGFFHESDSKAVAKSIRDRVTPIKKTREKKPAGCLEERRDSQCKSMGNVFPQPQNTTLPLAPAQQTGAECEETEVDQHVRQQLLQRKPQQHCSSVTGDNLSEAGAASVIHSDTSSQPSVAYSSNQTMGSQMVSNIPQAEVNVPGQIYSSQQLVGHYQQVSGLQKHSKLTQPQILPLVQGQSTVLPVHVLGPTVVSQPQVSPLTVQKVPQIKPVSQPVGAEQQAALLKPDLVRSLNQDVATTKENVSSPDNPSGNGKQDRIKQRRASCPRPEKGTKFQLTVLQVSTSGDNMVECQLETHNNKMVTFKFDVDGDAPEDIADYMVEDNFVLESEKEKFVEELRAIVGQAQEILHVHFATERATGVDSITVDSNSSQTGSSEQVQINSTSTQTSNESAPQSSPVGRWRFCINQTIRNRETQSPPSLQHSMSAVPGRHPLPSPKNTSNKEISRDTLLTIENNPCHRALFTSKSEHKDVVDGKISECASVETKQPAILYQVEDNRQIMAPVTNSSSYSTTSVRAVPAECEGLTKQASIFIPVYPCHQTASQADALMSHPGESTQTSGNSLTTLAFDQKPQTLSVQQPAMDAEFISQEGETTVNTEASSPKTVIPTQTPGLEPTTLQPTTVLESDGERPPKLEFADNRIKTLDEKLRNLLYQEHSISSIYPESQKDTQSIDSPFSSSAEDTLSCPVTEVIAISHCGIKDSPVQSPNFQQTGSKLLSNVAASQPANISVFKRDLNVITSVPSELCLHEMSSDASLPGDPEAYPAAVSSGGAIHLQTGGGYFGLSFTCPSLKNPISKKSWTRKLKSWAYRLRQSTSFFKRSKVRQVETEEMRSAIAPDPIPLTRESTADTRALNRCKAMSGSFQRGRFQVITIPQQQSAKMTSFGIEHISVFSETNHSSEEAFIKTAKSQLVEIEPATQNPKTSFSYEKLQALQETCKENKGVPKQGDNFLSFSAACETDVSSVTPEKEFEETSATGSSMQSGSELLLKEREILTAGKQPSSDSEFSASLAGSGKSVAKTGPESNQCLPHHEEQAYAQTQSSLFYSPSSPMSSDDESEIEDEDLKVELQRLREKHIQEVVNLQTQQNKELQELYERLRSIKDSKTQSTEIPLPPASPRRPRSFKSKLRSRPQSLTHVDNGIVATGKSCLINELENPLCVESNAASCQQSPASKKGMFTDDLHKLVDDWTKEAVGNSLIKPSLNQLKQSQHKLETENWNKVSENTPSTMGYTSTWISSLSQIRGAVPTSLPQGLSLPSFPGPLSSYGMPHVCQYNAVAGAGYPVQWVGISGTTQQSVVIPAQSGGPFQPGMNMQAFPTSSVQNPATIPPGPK

Series 1
Structure (SMILES): CO[C@H]1CC[C@H](CNc2ccc(S(=O)(=O)NC(=O)c3ccc(N4CCN(CC5=C(c6ccc(Cl)cc6)CC(C)(C)CC5)CC4)cc3Oc3cnc4[nH]ccc4c3)cc2[N+](=O)[O-])CC1
Read-out: cell-free assay
Technique: competition with immobilised ligand
Concentration: 1 µM
target | remaining binding [%]
HASPIN (Homo sapiens, UniProt Q8TF76) | 88
ACVR1B (Homo sapiens, UniProt P36896) | 67
CSNK2A2 (Homo sapiens, UniProt P19784) | 100
MET (Homo sapiens, UniProt P08581, M1250T) | 96
MYLK4 (Homo sapiens, UniProt Q86YV6) | 98
WNK3 (Homo sapiens, UniProt Q9BYP7) | 100
EGFR (Homo sapiens, UniProt P00533, L858R) | 60
PIK3CA (Homo sapiens, UniProt P42336, E542K) | 94
BMPR1B (Homo sapiens, UniProt O00238) | 92

Series 2
Target: Mitogen-activated protein kinase kinase kinase 14 (MAP3K14, Homo sapiens, UniProt Q99558)
Sequence of UniProt Q99558 (whole entry, looked up): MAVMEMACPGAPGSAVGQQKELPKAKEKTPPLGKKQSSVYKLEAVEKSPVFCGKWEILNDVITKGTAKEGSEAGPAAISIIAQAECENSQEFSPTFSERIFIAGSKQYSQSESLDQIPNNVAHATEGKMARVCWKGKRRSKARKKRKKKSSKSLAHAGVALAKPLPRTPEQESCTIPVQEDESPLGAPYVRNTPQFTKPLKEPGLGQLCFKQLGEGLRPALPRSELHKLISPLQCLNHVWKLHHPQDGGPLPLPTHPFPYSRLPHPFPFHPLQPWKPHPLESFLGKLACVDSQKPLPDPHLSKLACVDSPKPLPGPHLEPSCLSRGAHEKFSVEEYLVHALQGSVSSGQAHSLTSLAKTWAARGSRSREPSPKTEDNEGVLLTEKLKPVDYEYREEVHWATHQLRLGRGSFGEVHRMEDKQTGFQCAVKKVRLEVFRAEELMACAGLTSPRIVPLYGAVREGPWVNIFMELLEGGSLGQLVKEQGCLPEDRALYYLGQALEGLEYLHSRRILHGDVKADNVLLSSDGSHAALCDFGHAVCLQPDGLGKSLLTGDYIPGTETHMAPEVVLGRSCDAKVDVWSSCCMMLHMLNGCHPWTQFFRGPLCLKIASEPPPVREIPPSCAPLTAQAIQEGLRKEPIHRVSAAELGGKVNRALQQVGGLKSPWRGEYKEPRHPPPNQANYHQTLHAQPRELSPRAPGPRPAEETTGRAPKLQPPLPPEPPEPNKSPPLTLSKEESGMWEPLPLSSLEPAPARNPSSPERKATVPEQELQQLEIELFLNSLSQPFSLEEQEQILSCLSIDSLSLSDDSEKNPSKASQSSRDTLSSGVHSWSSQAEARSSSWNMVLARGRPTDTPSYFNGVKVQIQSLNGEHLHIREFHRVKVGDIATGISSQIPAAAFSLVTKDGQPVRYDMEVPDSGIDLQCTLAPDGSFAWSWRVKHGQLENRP
Read-out: enzyme activity
Mode: inhibitor
Concentration: 0.5 µM
Relative to: control
SMILES | remaining activity
O=C(CCCc1ccc(-c2ccccc2F)cc1)Nc1ccc(O)cc1 | 99.2%
Cc1ccc(NC(=O)c2ccc(CN3CCN(C)CC3)cc2)cc1Nc1nc(-c2cccnc2)cs1 | 91%
CNC(=O)c1cc(Oc2ccc(NC(=O)Nc3ccc(Cl)c(C(F)(F)F)c3)cc2)ccn1 | 96.4%
CN(C)c1ccc(C=C2C(=O)Nc3ccccc32)cc1 | 67.7%
Cc1nc(-c2ccccc2)c(-c2ccncc2)o1 | 96.2%
COc1ccc(C(=O)Nc2sc3c(c2C(N)=O)CCCC3)cc1OC | 88%
O=C(O)c1ccc2c3c1cccc3c(=O)n1c3ccccc3nc21 | 94.8%
O=C(Nc1cccc(Nc2cc(Nc3cccc(C(F)(F)F)c3)ncn2)c1)C1CC1 | 77.9%
NCCNc1ncc(C(N)=O)c(Nc2cccc(C(F)(F)F)c2)n1 | 110%
O=C1NC(=O)C(c2cn(CCCO)c3ncccc23)=C1c1cnccn1 | 78.1%
COc1ccc(CNC(=O)Nc2ncc([N+](=O)[O-])s2)cc1 | 84.2%
Nc1[nH]nc2nc3ccccc3nc12 | 99.2%

Series 3
Target: CCND2, cyclin fold, Cln2 fusion (human)
Technique: yeast growth competition, sequencing
Medium: yeast
Notes: weak parent motif
Relative to: not given
Reading: higher = stronger binding
Starting sequence: BRCA2 docking peptide (human); PSIKRNLLNEFDR
Variant | normalised enrichment score
F11T | 0.277
D12A | 0.645
P1T | 0.14
K4C | 0.694
L7Q | 0.295
P1E | 0.398
R13S | -0.0878
E10V | 0.0306

Other studies, line by line
Partner: ARF11 500-622 (Arabidopsis thaliana, UniProt Q9ZPY6)
Technique: two-hybrid
Relative to: out of 4 tests
Reading: higher = firmer interaction
Sequence (chain, as in one of the studies): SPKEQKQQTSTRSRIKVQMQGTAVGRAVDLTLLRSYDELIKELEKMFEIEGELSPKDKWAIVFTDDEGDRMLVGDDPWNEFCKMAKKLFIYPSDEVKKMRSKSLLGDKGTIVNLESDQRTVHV
Substance | positive tests
ETT (Arabidopsis thaliana, UniProt O23661) | 0
IAA29 (Arabidopsis thaliana, UniProt Q93WC4) | 0

Some of these lines once more (series 1):
target | remaining binding [%]
ACVR1B (Homo sapiens, UniProt P36896) | 67
CSNK2A2 (Homo sapiens, UniProt P19784) | 100
